Measured values pooled from the literature.
“And” joins repeats or separate records; there may be more than shown. ± marks the error that the study gave.
T1: RNA, tetracycline-neomycin hybrid riboswitch; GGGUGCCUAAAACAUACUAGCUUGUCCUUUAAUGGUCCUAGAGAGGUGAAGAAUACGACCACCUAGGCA
Chain of UniProt Q64663 (whole entry, unmodified, looked up): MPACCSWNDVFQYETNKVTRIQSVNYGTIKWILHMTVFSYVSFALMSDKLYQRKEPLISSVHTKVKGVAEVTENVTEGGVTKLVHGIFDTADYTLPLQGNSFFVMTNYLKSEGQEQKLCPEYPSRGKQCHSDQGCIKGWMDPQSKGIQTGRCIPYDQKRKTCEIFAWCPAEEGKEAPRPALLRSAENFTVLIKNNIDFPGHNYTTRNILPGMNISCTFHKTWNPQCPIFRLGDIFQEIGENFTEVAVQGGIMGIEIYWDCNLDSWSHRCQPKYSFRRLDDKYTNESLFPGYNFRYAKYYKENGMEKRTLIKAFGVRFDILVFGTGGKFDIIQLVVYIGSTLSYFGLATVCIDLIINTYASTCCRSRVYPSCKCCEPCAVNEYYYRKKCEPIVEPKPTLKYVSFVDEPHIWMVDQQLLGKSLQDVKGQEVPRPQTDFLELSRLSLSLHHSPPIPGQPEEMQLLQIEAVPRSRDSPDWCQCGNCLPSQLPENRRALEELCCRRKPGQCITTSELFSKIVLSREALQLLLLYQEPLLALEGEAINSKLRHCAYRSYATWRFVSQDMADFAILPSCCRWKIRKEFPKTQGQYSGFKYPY
Chain of UniProt P22736 (whole entry, looked up): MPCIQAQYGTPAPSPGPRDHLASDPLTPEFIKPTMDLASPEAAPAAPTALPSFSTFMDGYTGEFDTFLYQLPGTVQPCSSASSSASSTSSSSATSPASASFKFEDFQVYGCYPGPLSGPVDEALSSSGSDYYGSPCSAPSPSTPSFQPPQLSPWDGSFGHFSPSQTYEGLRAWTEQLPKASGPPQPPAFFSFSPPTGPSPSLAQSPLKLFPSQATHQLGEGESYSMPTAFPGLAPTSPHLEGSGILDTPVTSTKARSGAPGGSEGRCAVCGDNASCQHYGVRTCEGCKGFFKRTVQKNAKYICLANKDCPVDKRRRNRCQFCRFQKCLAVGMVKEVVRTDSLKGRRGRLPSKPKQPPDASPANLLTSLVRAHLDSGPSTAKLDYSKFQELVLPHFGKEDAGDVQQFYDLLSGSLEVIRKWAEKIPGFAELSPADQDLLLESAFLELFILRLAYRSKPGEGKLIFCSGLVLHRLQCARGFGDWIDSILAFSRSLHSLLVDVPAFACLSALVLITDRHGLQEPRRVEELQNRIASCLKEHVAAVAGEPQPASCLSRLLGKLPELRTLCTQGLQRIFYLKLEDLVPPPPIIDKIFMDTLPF
Chain of UniProt O43791 (whole entry, looked up): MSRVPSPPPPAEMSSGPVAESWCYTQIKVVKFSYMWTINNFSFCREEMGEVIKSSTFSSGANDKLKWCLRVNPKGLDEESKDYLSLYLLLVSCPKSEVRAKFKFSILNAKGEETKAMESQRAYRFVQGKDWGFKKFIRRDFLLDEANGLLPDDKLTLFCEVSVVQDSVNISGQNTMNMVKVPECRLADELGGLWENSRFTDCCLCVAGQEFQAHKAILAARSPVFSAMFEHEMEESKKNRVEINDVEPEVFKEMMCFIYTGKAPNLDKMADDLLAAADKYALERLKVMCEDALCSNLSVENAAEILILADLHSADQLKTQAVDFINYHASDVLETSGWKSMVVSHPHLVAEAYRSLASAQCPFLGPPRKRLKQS
Chain of UniProt P0A8V2 (whole entry, looked up): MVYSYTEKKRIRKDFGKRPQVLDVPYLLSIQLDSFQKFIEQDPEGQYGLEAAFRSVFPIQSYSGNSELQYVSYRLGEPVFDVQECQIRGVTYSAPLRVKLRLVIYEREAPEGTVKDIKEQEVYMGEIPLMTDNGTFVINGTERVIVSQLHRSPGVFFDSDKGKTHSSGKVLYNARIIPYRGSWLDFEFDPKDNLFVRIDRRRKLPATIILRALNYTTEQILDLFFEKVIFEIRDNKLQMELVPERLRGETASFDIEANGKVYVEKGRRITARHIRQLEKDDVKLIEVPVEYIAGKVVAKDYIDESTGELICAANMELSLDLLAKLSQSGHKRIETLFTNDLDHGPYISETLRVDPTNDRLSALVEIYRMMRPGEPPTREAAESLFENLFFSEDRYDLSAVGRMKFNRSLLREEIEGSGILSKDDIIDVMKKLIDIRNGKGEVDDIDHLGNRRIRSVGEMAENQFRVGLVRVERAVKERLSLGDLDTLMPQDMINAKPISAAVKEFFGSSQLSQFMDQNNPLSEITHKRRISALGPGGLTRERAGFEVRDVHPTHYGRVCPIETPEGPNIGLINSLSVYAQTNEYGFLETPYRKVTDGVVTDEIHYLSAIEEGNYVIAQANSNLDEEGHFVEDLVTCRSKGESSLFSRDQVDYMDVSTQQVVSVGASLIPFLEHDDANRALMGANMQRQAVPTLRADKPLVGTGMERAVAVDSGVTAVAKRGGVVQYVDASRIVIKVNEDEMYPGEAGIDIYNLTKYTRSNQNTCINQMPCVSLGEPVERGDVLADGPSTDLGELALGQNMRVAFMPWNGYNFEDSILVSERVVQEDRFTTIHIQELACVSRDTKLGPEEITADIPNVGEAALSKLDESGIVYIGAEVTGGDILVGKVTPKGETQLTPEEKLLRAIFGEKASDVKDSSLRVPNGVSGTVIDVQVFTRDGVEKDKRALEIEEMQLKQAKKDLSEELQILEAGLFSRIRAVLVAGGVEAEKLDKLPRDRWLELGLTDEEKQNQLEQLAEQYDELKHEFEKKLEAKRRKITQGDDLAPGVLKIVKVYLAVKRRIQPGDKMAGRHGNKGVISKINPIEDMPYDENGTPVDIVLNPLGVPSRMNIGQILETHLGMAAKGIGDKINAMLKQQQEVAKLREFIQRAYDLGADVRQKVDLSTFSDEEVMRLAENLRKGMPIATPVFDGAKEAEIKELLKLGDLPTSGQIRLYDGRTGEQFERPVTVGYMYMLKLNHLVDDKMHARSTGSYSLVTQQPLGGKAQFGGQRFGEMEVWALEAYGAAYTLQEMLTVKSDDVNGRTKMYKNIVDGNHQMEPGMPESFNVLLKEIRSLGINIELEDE
Chain of UniProt Q96LB2 (whole entry, looked up): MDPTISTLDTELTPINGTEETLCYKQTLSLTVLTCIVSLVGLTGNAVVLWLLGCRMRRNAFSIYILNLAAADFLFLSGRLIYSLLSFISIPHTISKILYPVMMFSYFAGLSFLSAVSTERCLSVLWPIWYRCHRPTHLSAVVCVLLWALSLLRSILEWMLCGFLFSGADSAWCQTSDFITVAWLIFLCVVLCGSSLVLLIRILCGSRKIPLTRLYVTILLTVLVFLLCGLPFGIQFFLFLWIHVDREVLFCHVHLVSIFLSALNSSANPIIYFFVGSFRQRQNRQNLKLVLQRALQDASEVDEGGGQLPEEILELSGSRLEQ
Chain of UniProt P31641 (whole entry, unmodified, looked up): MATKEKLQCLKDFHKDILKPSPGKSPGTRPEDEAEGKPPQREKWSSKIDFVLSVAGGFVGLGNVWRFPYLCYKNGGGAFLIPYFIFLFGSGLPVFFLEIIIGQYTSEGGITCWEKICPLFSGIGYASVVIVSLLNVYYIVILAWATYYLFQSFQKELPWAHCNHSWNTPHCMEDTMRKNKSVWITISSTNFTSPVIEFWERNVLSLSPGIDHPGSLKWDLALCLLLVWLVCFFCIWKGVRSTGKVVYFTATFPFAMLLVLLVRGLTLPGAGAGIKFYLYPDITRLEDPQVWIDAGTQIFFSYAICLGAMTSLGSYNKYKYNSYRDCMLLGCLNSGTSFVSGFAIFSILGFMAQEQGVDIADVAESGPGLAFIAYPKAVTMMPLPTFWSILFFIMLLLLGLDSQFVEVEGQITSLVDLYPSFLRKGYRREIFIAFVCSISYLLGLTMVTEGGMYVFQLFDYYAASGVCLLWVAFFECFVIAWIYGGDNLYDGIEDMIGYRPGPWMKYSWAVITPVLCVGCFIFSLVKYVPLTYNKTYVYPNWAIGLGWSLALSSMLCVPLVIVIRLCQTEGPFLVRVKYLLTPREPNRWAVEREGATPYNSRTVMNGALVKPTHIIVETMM
Chain of UniProt Q07011 (whole entry, unmodified, looked up): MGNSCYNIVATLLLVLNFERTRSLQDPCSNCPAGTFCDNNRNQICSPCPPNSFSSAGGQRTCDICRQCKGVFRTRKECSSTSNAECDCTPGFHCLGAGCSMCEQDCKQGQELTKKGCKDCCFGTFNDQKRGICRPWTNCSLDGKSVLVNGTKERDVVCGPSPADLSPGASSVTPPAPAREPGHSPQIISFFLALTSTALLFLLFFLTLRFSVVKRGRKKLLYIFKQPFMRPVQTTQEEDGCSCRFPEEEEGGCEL
Chain of UniProt P51575 (whole entry, unmodified, looked up): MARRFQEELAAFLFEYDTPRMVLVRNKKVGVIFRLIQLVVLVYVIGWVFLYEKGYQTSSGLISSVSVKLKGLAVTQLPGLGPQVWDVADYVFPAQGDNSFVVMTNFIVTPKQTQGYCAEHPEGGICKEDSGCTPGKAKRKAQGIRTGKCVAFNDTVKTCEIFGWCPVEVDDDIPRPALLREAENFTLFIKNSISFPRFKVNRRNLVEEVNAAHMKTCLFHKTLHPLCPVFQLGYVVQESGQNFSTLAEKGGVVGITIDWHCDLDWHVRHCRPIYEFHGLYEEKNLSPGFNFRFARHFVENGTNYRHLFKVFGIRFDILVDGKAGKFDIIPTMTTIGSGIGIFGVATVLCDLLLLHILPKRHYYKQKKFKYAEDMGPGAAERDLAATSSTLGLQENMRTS
Chain of UniProt Q9NZQ7 (whole entry, looked up): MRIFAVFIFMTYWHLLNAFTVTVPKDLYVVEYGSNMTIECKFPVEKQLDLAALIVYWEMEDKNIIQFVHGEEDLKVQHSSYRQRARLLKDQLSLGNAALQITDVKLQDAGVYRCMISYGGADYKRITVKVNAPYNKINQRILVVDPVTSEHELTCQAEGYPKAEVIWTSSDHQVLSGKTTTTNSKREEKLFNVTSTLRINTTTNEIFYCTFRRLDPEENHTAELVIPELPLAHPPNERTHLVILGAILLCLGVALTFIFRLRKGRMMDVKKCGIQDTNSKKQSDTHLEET

| SMILES | target | assay | test system | conditions | scale | measurement | value |
| --- | --- | --- | --- | --- | --- | --- | --- |
| COc1cc2ncnc(Nc3ccc(F)c(Cl)c3)c2cc1OCCCN1CCOCC1 | SMUG1 (Homo sapiens, UniProt Q53HV7) | glycosylase activity, activator, fluorescence | – | 75 µM | – | activation | ~200% |
| CC(C)(C)c1sc2ncnc(Oc3c(F)cccc3OC(F)(F)F)c2c1-c1ccc(Cl)cc1 | Mas-related G-protein coupled receptor member X1 (MRGPRX1, Homo sapiens, UniProt Q96LB2) | calcium flux, positive allosteric modulator | – | 100 µM, no orthosteric agonist | reference: maximum response to agonist | maximum response | 10% |
| O=S(=O)(O)C1CCNCC1 | Sodium- and chloride-dependent taurine transporter (SLC6A6, Homo sapiens, UniProt P31641, Y138A) | binding, microscale thermophoresis | – | 62.5 µM, room temperature, with: 50 nM labelled protein | higher = more binding | normalised MST signal | 0.0316 |
| O=C(NO)c1ccc(CN2CCCCc3ccccc32)c(F)c1 | 5-hydroxytryptamine receptor 2B (HTR2B, Homo sapiens, UniProt P41595) | radioligand binding, PDSP radioligand binding | – | 10 µM | – | inhibition | 43.9% |
| CCCC[C@@H]1NC(=O)[C@H](Cc2ccc(O)cc2)NC(=O)[C@@H]2CCCN2C(=O)[C@H](CC(=O)O)NC(=O)[C@H](C)NC(=O)[C@H](Cc2ccccc2)NC(=O)[C@@H]2CSCCC(=O)N3CN(CN(C3)C(=O)CCSC[C@@H](C(=O)N[C@@H](C)C(N)=O)NC1=O)C(=O)CCSC[C@H](NC(C)=O)C(=O)N[C@@H](CC(C)(C)C)C(=O)N1CCC[C@H]1C(=O)N[C@@H](CCC(=O)O)C(=O)N[C@H](CCCCNC(=O)CCc1cn(CCOCCOCCOCCOCCOCCC(=O)N[C@H]3CSCCC(=O)N4CN5CN(C4)C(=O)CCSC[C@H](NC(=O)[C@@H](CC(=O)O)NC(=O)[C@H](Cc4cccc6ccccc46)NC(=O)[C@@H]4CCCN4C3=O)C(=O)N[C@@H](CCSC)C(=O)N[C@@H](CCCCNC(=N)N)C(=O)N[C@@H](CC(=O)O)C(=O)N[C@@H](Cc3c[nH]c4ccccc34)C(=O)N[C@@H](CO)C(=O)N[C@@H]([C@@H](C)O)C(=O)N3CCC[C@H]3C(=O)N3C[C@H](O)C[C@H]3C(=O)N[C@@H](Cc3c[nH]c4ccccc34)C(=O)N[C@H](C(N)=O)CSCCC5=O)nn1)C(=O)N1CCC[C@H]1C(=O)N[C@@H](Cc1ccc(O)cc1)C(=O)N2 | Tumor necrosis factor receptor superfamily member 9/Nectin-4 (Homo sapiens, UniProt Q07011+Q96NY8) | reporter gene, agonist | HT-1376 coculture with reporter cells | – | reference: background | Emax | 31 fold |
| Nc1ncnc2c1ncn2[C@@H]1O[C@H](COP(=O)(O)OP(=O)(O)OP(=O)(O)O)[C@@H](O)[C@H]1O | DNA-directed RNA polymerase subunit beta' / DNA-directed RNA polymerase subunit beta (rpoC/rpoB, Escherichia coli, UniProt P0A8T7+P0A8V2) | transcription elongation, rapid chemical quench-flow | – | fast complex fraction, i+2→i+1, with: NTP 200 µM | – | nucleotide addition rate constant | 36 ± 2 s⁻¹ |
| Oc1ccccc1-c1n[nH]cc1-c1ccnc2ccccc12 | Serine/threonine-protein kinase CST20 (CST20, Candida albicans, UniProt P0CY24) | kinase binding, MIB/MS competition | Candida albicans lysate | 1 µM | reference: DMSO, negative = stronger binding | log2 fold change | 0.33 |
| Nc1ncnc2c1ncn2[C@@H]1O[C@H](COP(=O)(O)OP(=O)(O)OP(=O)(O)O)[C@@H](O)[C@H]1O | P2X purinoceptor 7 (P2rx7, Rattus norvegicus, UniProt Q64663, R125A) | ion current, agonist, two-electrode voltage clamp | Xenopus laevis oocytes | 2.058 µM | reference: highest concentration response | normalized current | 0.0219 and 0.019 and 0.13 |
| CN(C)[C@@H]1C(=O)C(C(N)=O)=C(O)[C@@]2(O)C(=O)C3=C(O)c4c(O)cccc4[C@@](C)(O)[C@H]3C[C@@H]12 | T1, RNA, tetracycline-neomycin hybrid riboswitch | in-line probing | – | 72 h, Mg2+ 10 mM, K+ 100 mM | – | binding | binds |
| COc1nc(-c2cccc(-c3ccccc3)c2C)ccc1CNCCNC(=O)CCCCCCCCCCC(=O)N1CCN(CCNC(=O)c2cc3c(=O)n4cccc(C)c4nc3n(CCc3cccs3)c2=N)CC1 | SPOP/CD274 (Homo sapiens, UniProt O43791+Q9NZQ7) | biolayer interferometry | – | concentration not given, ternary complex | reference: absence of compound | SPOP-PD-L1 interaction | increased |
| Nc1ncnc2c1ncn2[C@@H]1O[C@H](COP(=O)(O)CP(=O)(O)OP(=O)(O)O)[C@@H](O)[C@H]1O | P2X purinoceptor 1 (P2RX1, Homo sapiens, UniProt P51575, R139P) | calcium influx | – | 10 µM | reference: ionomycin response | calcium influx | 100% |
| CCN1CCN(c2cc(N3CCN(CC)CC3)nc(NCCNc3ccnc4cc(Cl)ccc34)n2)CC1 | Nuclear receptor subfamily 4 group A member 1 (NR4A1, Homo sapiens, UniProt P22736) | reporter gene, Gal4 hybrid reporter | – | 20 µM | reference: vehicle | activation | 2.37 fold |

A few entries again:
| SMILES | target | assay | test system | conditions | scale | measurement | value |
| --- | --- | --- | --- | --- | --- | --- | --- |
| O=C(NO)c1ccc(CN2CCCCc3ccccc32)c(F)c1 | 5-hydroxytryptamine receptor 2B (HTR2B, Homo sapiens, UniProt P41595) | radioligand binding, PDSP radioligand binding | – | 10 µM | – | inhibition | 43.9% |
| Nc1ncnc2c1ncn2[C@@H]1O[C@H](COP(=O)(O)CP(=O)(O)OP(=O)(O)O)[C@@H](O)[C@H]1O | P2X purinoceptor 1 (P2RX1, Homo sapiens, UniProt P51575, R139P) | calcium influx | – | 10 µM | reference: ionomycin response | calcium influx | 100% |
